{"data": "Assay results from different studies", "note": "Every numbered part comes from another study and shows a few of its results, in no order."}
{"data": "Block 1", "target": "Interferon regulatory factor 3, full length, phosphomimetic (IRF3, Homo sapiens, UniProt Q14653, residues 1-427, S386D/S396D/S398D/S402D/T404D/S405D)", "method": "protein-binding microarray", "molecule type": "double-stranded DNA, one strand shown", "medium": "in vitro", "concentration": "2540 nM top", "setting": "60-bp whole probe", "with": "salmon DNA 0.4 mg/ml", "reference": "random background probes", "reading": "higher = stronger binding", "constant ends, left off below": "GCCTAGCAC … GTCTTGATTCGCTTGACGCTGCTG", "Construct (chain)": "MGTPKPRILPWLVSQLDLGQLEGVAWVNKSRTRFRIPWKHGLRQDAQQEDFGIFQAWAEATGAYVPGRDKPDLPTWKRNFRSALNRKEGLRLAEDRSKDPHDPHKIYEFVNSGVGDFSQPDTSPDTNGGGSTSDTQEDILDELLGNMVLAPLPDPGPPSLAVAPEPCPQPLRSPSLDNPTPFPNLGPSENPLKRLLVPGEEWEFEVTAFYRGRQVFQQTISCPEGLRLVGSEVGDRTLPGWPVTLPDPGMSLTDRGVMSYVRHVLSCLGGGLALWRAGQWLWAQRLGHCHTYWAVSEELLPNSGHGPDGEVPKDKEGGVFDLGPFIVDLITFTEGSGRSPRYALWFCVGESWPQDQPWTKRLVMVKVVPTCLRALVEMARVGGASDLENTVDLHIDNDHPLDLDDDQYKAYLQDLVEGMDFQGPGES"}
{"Sequence": "TTAAGACTGGGTTTCGGTTAGTGCTAG", "fitted relative affinity [z-score]": 3.2}
{"Sequence": "TCATTTCTTTCAAATGAAACTGTGCTA", "fitted relative affinity [z-score]": 2.06}
{"Sequence": "TTAGAGATCAGTATCGATTAGTGCTAG", "fitted relative affinity [z-score]": 1.56}
{"Sequence": "GACGGTTGCGGTTCCGGGACGTGCTAG", "fitted relative affinity [z-score]": 5.34}
{"Sequence": "GGCGGACTGGGACTGGGGACGTGCTAG", "fitted relative affinity [z-score]": -1.13}
{"Sequence": "TTACGTATCGGTCTCGGTTAGTGCTAG", "fitted relative affinity [z-score]": 4.36}
{"Sequence": "TTCGGTCTCCTTATCCTTTAGTGCTAG", "fitted relative affinity [z-score]": 3.62}
{"Sequence": "TCAAAGCAAAAATGATTACTGTGCTAG", "fitted relative affinity [z-score]": -0.303}
{"Sequence": "TTAGAACTGAGACTGAATTAGTGCTAG", "fitted relative affinity [z-score]": -0.0343}
{"Sequence": "GACGGACTGGGGTTTCTGGACGTGCTA", "fitted relative affinity [z-score]": -0.673}
{"Sequence": "TTAGGACTGGGTTTCGTTTAGTGCTAG", "fitted relative affinity [z-score]": 1.76}
{"Sequence": "GGCTGTTTGATCTTGATCCTGTGCTAG", "fitted relative affinity [z-score]": -0.141}
{"Sequence": "GTAGGTCTCGGTATCGGTTAGTGCTAG", "fitted relative affinity [z-score]": 2.62}
{"Sequence": "GTAGGTTCCGGTTTCGGTTAGTGCTAG", "fitted relative affinity [z-score]": 8.16}
{"Sequence": "TTAGGTTTCCTGTTCCTTTAGTGCTAG", "fitted relative affinity [z-score]": 4.43}
{"Sequence": "TATGTTCCTTTAGCACTTTGGTGCTAG", "fitted relative affinity [z-score]": 1.82}
{"Sequence": "GACGAACTGAGTTTCGAGATGTGCTAG", "fitted relative affinity [z-score]": 1.41}
{"Sequence": "TTAGGACTGGAAACTGGGTTAGTGCTA", "fitted relative affinity [z-score]": -0.106}
{"Sequence": "TCCCATTCTGAATTCGAATGGTGCTAG", "fitted relative affinity [z-score]": 2.74}
{"data": "Block 2", "target": "Prothrombin, mature alpha-thrombin (F2, Homo sapiens, UniProt P00734)", "method": "aptamer microarray, sandwich", "molecule type": "DNA with 2'F-ANA", "medium": "in vitro", "concentration": "200 nM", "setting": "whole 15-mer aptamer, many near background", "with": "Cy3 exosite-II aptamer, 400 nM", "reading": "higher = stronger binding", "sequence": "GGTTGGTGTGGTTGG"}
{"Modification": "2'F-ANA at 4 5 6 9 10 11 13 14 15", "mean fluorescence intensity [a.u.]": 47.7}
{"Modification": "2'F-ANA at 2 8 10 11", "mean fluorescence intensity [a.u.]": 125}
{"Modification": "2'F-ANA at 1 2 3 5 6 9 11 12 14 15", "mean fluorescence intensity [a.u.]": 48.2}
{"Modification": "2'F-ANA at 1 5 6 7 10 11 14 15", "mean fluorescence intensity [a.u.]": 48.3}
{"Modification": "2'F-ANA at 1 5 6 7 8 10 15", "mean fluorescence intensity [a.u.]": 50.4}
{"Modification": "2'F-ANA at 1 2 4 7 8 9 10 12 13", "mean fluorescence intensity [a.u.]": 55.4}
{"Modification": "2'F-ANA at 1 2 4 10 12 14", "mean fluorescence intensity [a.u.]": 49.4}
{"Modification": "2'F-ANA at 3 5 8 9 12 15", "mean fluorescence intensity [a.u.]": 275}
{"Modification": "2'F-ANA at 1 2 7 8 12 14 15", "mean fluorescence intensity [a.u.]": 87.3}
{"Modification": "2'F-ANA at 3 5 7 9", "mean fluorescence intensity [a.u.]": 136}
{"Modification": "2'F-ANA at 1 3 5 7 9 11 12 13", "mean fluorescence intensity [a.u.]": 75.2}
{"Modification": "2'F-ANA at 5 6 7 8 10 11 12 15", "mean fluorescence intensity [a.u.]": 49.7}
{"Modification": "2'F-ANA at 1 2 5 6 9 10 11 13 14 15", "mean fluorescence intensity [a.u.]": 52.4}
{"Modification": "2'F-ANA at 1 4 7 8 9 12 13 14 15", "mean fluorescence intensity [a.u.]": 67.3}
{"Modification": "2'F-ANA at 1 3 4 5 8 11", "mean fluorescence intensity [a.u.]": 53.4}
{"Modification": "2'F-ANA at 1 2 5 6 11 12", "mean fluorescence intensity [a.u.]": 85.8}
{"Modification": "2'F-ANA at 3 4 7 8 11 12 13 14 15", "mean fluorescence intensity [a.u.]": 417}
{"Modification": "2'F-ANA at 1 2 3 6 7 9 13 14 15", "mean fluorescence intensity [a.u.]": 65.8}
{"data": "Block 3", "target": "Sal-like protein 4, full length isoform A (SALL4, Homo sapiens, UniProt Q9UJQ4, residues 1-1053)", "method": "universal PBM", "molecule type": "double-stranded DNA, one strand shown", "medium": "in vitro", "concentration": "600 nM", "setting": "8-mer, flanks averaged, mean of replicates", "reading": "higher = stronger binding", "chain of UniProt Q9UJQ4 (whole entry, looked up)": "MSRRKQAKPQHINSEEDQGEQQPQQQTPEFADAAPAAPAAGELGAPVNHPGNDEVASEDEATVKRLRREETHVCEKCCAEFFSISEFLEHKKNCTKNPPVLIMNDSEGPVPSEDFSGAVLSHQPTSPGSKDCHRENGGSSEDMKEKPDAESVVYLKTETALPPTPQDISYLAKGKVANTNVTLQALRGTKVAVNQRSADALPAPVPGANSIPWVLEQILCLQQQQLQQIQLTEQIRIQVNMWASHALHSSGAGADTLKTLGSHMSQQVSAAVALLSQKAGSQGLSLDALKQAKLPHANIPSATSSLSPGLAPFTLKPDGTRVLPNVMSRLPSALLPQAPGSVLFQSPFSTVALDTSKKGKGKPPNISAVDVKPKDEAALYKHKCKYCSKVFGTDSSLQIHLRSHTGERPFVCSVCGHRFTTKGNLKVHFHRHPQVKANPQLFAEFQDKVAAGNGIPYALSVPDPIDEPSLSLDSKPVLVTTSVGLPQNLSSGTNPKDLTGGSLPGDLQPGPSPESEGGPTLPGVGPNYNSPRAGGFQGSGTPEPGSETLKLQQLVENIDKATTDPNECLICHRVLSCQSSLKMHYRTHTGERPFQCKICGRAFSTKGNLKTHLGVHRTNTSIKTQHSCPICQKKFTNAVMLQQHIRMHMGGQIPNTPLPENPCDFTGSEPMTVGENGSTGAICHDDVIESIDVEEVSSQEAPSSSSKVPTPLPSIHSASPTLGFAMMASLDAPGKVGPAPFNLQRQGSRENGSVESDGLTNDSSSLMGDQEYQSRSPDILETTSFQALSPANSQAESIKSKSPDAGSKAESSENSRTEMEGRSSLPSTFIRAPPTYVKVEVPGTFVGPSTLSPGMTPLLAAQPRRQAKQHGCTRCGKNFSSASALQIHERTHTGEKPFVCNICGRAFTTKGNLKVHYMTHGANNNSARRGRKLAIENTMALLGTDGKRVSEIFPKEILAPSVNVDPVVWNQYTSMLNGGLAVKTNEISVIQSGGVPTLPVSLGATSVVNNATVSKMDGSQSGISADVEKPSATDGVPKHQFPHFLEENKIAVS"}
{"Sequence": "CGTACTCC", "E-score": -0.205}
{"Sequence": "AGACCCAC", "E-score": -0.16}
{"Sequence": "ATTTTTAG", "E-score": 0.206}
{"Sequence": "AGGATAAT", "E-score": 0.216}
{"Sequence": "CACACACA", "E-score": -0.0173}
{"Sequence": "AGAACGTG", "E-score": -0.126}
{"Sequence": "TTGAAAAA", "E-score": 0.336}
{"Sequence": "AGTACAGA", "E-score": 0.152}
{"Sequence": "TTGATAAA", "E-score": 0.297}
{"Sequence": "CAACCGCA", "E-score": -0.106}
{"Sequence": "ACGGGAAA", "E-score": -0.0822}
{"Sequence": "CGAGTGCA", "E-score": -0.0516}
{"Sequence": "ACTAAAAT", "E-score": 0.289}
{"Sequence": "AACGTCGG", "E-score": -0.16}
{"Sequence": "ATCGATCC", "E-score": -0.0791}
{"Sequence": "GCGTAAAA", "E-score": 0.149}
{"Sequence": "CACACGCA", "E-score": -0.251}
{"data": "Block 4", "target": "RNA binding protein fox-1 homolog 2, RRM domain, GST-SBP tag (RBFOX2, Homo sapiens, UniProt O43251-10, residues 100-194)", "method": "RNA Bind-n-Seq", "molecule type": "RNA", "medium": "in vitro", "concentration": "365 nM", "setting": "natural RNA segment, single round, ends assumed", "reference": "no-protein control", "reading": "higher = stronger binding", "Target sequence (chain)": "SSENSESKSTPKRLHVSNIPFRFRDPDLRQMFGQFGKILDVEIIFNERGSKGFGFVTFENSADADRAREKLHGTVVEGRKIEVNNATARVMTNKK"}
{"Sequence": "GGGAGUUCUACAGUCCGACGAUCAUCUGACUACCCCUGAAUCCACCCAGAAAGGGGGCCCAACACCCUUGUCCAUUUAUGGGUAUUUUUUUUCGAAGUUAUUAAGCAUAUUCCUUUUCCACGAACCUCUUCUGUGGAAUUCUCGGGUGCCAA", "RBNS enrichment (R)": 0.717}
{"Sequence": "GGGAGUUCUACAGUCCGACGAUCUGCAGAGAAUUCUUGCAGGAAUCAAUAAGGACGUGUCUCUAAUCACGUGUGCGAACUGAAAUGUCAUAGCUGAAGCAGUAUAACAGAAAACCUUUGUUUCCUGUGGGGGGUGGAAUUCUCGGGUGCCAA", "RBNS enrichment (R)": 0.394}
{"Sequence": "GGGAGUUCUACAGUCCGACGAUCGUGCAAAAUAGUGGUGGUAAAGCACACAUCAUUGGACUAUGCAAGUUGAUUUCUAGGAGCAGCACUGAGCAGCUGGCCAUUGCUAGCACACACCCUUUCCCUCACCUGUAUGGAAUUCUCGGGUGCCAA", "RBNS enrichment (R)": 1.65}
{"Sequence": "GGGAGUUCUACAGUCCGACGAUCGAGCAGCGCUCAAGGCUCUCGCCCCUCCCCUCCCUAACCCUUACCUUCAGUCUCCACCAGCCUGAAGGGCCUCCUAGGGGAUCCUCAGGCGGCCCCCACCAGGGCACACCUGGAAUUCUCGGGUGCCAA", "RBNS enrichment (R)": 0.359}
{"Sequence": "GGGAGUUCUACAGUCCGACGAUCACCCCAGAGUGUUUUCAGUGUGCCAGAGAAGCAGCUGUAGCGUUAGGACAUGAGCCUGUCUAGUGUUUCCUAGGAAAGGGAUAGUUUUCUGUUGGUAUAGCAUUUUCUAAUGGAAUUCUCGGGUGCCAA", "RBNS enrichment (R)": 2.27}
{"Sequence": "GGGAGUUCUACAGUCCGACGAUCAUAGUAUUGUGAAAGUUCUGAGACCUUCCCUGGCUCAGGACCUCUGAGUUUCCUUCCCCCUCCCCCCAAUUCAAACCAGGCAGUUUUUUUGGAAGCCAGGUUUCCUUACAUGGAAUUCUCGGGUGCCAA", "RBNS enrichment (R)": 0.557}
{"Sequence": "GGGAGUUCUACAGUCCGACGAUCCCUCUGGCCUGCAGGGCAGCCCAAGUCAUGACUCAGACCAGGUCCCACACUGAGCUGCCCACACUCGAGAGCCAGAUAUUUUUGUAGUUUUUAUGCCUUUGGCUAUUAUGUGGAAUUCUCGGGUGCCAA", "RBNS enrichment (R)": 0.541}
{"Sequence": "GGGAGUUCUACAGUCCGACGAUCCCGAUUCCUGCCUGCCCGCUUUGAGAGACCCGGUCACUUGCUUGUGGGCCCUCCCACUUGCCUCUGCCACCUCCCCUCAUAGCUAUUCCUGGCUUGCUGUCUGCAAGGCCUGGAAUUCUCGGGUGCCAA", "RBNS enrichment (R)": 0.431}
{"note": "A few entries again (block 2):"}
{"Modification": "2'F-ANA at 1 2 3 5 6 9 11 12 14 15", "mean fluorescence intensity [a.u.]": 48.2}
{"Modification": "2'F-ANA at 1 5 6 7 10 11 14 15", "mean fluorescence intensity [a.u.]": 48.3}
{"Modification": "2'F-ANA at 1 5 6 7 8 10 15", "mean fluorescence intensity [a.u.]": 50.4}
{"Modification": "2'F-ANA at 1 2 4 7 8 9 10 12 13", "mean fluorescence intensity [a.u.]": 55.4}
{"Modification": "2'F-ANA at 1 2 4 10 12 14", "mean fluorescence intensity [a.u.]": 49.4}
{"Modification": "2'F-ANA at 3 5 8 9 12 15", "mean fluorescence intensity [a.u.]": 275}
{"Modification": "2'F-ANA at 1 2 7 8 12 14 15", "mean fluorescence intensity [a.u.]": 87.3}
